Results pooled from the literature.
Numbered parts are unrelated; each lists some results of a single study.

Study 1
Target: Hepatocyte nuclear factor 3-alpha (Foxa1, Mus musculus, UniProt P35582, residues 1-468, full length assumed)
Method: EMSA with sequencing
Form: double-stranded DNA, one strand shown
Matrix: in vitro
Concentration: 10 and 20 nM
Notes: whole designed probe, mean of two concentrations, ends assumed
Baseline: negative control set to 0
Reading: higher = stronger binding
Quantity: normalised bound fraction
Constant ends, left off below: GTGAGCGGTGCCCATTGATGGGGAAC … TTTCACTGGGATCGTGGGGAC
Target sequence (chain): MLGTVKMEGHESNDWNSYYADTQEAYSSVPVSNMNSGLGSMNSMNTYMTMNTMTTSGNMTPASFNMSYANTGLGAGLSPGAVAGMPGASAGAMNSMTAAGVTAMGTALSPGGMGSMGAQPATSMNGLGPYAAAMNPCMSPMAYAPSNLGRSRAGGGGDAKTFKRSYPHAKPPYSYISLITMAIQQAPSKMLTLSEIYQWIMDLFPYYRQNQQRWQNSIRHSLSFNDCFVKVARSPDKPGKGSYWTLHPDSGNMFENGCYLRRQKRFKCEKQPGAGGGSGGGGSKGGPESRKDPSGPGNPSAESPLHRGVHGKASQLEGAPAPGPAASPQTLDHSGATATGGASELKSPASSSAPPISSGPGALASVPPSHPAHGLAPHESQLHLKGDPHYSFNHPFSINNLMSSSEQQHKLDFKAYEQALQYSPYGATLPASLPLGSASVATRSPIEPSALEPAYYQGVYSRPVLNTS
ATCCCAGGGCCTCTGGGCCTCCCACTGCACTGTGTCATCTGCCATTTGGTGTTTTCTTGGAGAAGAAGCTCTGTCATCTTCTTACATGAGCAAAGTAATCTTCTATGTCTCTCCCACATTGTTGGTCATGTTTTCTGTTACTTGCAGCTGAATGCATTCCTGTGCCATCAATCATGTCCACTTTAGAGATAAA: -0.0635 ratio
ATCTTCCCCCTCTTCCTTGCCCCACCAGCTCACCTACGGGGGTTATTTGCACAAAGGAAAATAAATAAAGCCGGCATTCGTTAACGCAGTTCACGCGCATACTGCTGTTTGCTCTGCATGAATCATGGTCCTTACGCGACGCCAGGCTCCGGGAGAGCAAAGCACCGTGTCAGGCGCATGATCCGGGGTGGCC: 0.393 ratio
TTTCATCCCAAATGGTTGACTTTTCAGTATTTGAGCTAGACTTACCTTATGAATTATAGTGTGCATTCTCACTGAAAGTAGTCTCATTTTCTTGTTTACATTTATATCCATGTTTGTTGAATTGAGTACAGTTCAACAATGGTATTTCTTAGCTTAGCTTAAAAACTAAAATGGGATGATTCATTGAGTCTAT: 0.403 ratio
ATCTTCCCCCTCTTCCTTGCCCCACCAGCTCACCTACGGGGGTTATTTGCAGATAGGAAAATAAATAAAGCCGGCATTCGTTAACCCTCTTCTGGCGCAAACTGCTGTTTGCTCTGCATGAATCATGGTCCTTACGCGACGCCAGGCTCCGGGAGAGCAAAGCACCGTGTCAGGCGCATGATCCGGGGTGGCC: 0.348 ratio
TTGCAGGCTGCAGTGATGTCCTTCATATCACGTCATCTTAGTGCCACTTCATCTTTATTGGCATCTCTGGGAGGAACAAAACCCCAGTGGTATGCAAACACCGTCATGGGGACTTGCTTCAAGCCATGGGAAGTTTCACGCAAAGCCAGTTTCTCAGTAGGGCAAATGTTGTGTAAAAGTACAAGAAGTTTGA: 0.15 ratio
ATCTTCCCCCTCTTCCTTGCCCCACCAGCTCACCTTCCCGGGTATCTGCAAATAAGTATTTATTTTCAAGCCGGCATTCGTTAACCCTCTTCACGCGCATACTGCTGTTTGCTCTGGATGAATCATGGTCCTTTGGCGACGCCAGGCTCCGGGAGAGCAAAGCACCGTGTCAGGGCCATGATCCGGGGTGGCC: 0.216 ratio
ATCTTCCCCCTCTTCCTTGCCCCACCAGCTCACCTTCCCGGGTTTGTGGAAGAACAAAATTATAATAAAGCCGGCATTCGTTAACCCTCTTCTGGCGCAAACTGCTGTTTGCTCTGGATGAATCATGGTCCTTTGGCGACGCCAGGCTCCGGGAGAGCAAAGCACCGTGTCAGGGCCATGATCCGGGGTGGCC: 0.174 ratio
ATGTGTGTATTTGTACTTAATTTTGGGCAATTGGAAAAAAACTTTTCTATGTGATCCTTCAGCCTAGCAACGAATCAAGCTACTTTTCTTCATGTTTACTTAATTATTTTGTATGCTCCCCATCCAAGCAAGCAATTCAAGTATATGTAACAATCAGAGGGGACCAAACATAAACCAAAAAATGGTCATATGT: 0.394 ratio

Study 2
Target: Histone acetyltransferase KAT6A, winged helix 2, GST fusion (KAT6A, Homo sapiens, UniProt Q92794, residues 85-181)
Method: protein binding microarray
Form: double-stranded DNA, one strand shown
Matrix: in vitro
Concentration: not given
Notes: 8-mer, flanks averaged, mean of 2 arrays, mostly near background
Baseline: not given
Reading: higher = stronger binding
Quantity: E-score
Target sequence (chain): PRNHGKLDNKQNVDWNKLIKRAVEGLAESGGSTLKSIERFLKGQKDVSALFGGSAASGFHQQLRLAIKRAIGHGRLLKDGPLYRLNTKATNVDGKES
ACAACTGT: -0.163
AACTCGCC: 0.118
GATGGAGA: -0.00789
AGTTCGAT: -0.0537
TATATAGA: -0.109
AAGATGGG: -0.11
CCACTCCG: 0.0103
AGGCCATA: -0.0389
TCTTCGAA: 0.0206
CCTCGTTC: -0.0796
AGTTGTGG: -0.0373
AGCTTAGC: 0.13
AACGCGCG: 0.205
CCGATAGA: -0.129
TAATATCA: 0.144
AGGGCACA: 0.114
CCTCATCG: -0.0446
TCTACTAA: 0.062
AGATGACA: -0.0693
CCGTTTGA: -0.0379
CTACTCTC: -0.0755
AACTGCGT: 0.0896
TAGTCCAA: -0.0906
AACAAGCT: 0.033
GTTGCGGA: 0.0592

Study 3
Target: Prothrombin, mature alpha-thrombin (F2, Homo sapiens, UniProt P00734)
Method: aptamer microarray, sandwich
Form: DNA with 2'F-ANA
Matrix: in vitro
Concentration: 200 nM
Notes: whole 15-mer aptamer, many near background
With: Cy3 exosite-II aptamer, 400 nM
Reading: higher = stronger binding
Quantity: mean fluorescence intensity
Strand: GGTTGGTGTGGTTGG
2'F-ANA at 1 2 4 5 7 8 10 14 15: 49.7 a.u.
2'F-ANA at 3 4 6 7 8 9 10 11 13 14: 174 a.u.
2'F-ANA at 4 6 10 11: 74 a.u.
2'F-ANA at 6 10 11 12 13 14 15: 97.8 a.u.
2'F-ANA at 1 3 4 6 8 13: 226 a.u.
2'F-ANA at 5 9 13 14 15: 118 a.u.
2'F-ANA at 1 2 3 4 6 8 9 13 14: 54.6 a.u.
2'F-ANA at 2 5 12 14 15: 46.8 a.u.
2'F-ANA at 2 3 7 8 9 10 13: 360 a.u.
2'F-ANA at 1 3 6 8 10 11 13 14: 60 a.u.
2'F-ANA at 3 4 7 8 9 10 14: 264 a.u.
2'F-ANA at 1 2 4 5 6 8 11 13 14 15: 53.6 a.u.
2'F-ANA at 4 5 8 9 15: 92 a.u.
2'F-ANA at 1 5 6 12 13 14: 46.2 a.u.
2'F-ANA at 3 5 6 7 9 11 12 14: 88.3 a.u.
2'F-ANA at 2 3 5 11 12 13: 150 a.u.
2'F-ANA at 2 5 11 13 14: 51.3 a.u.
2'F-ANA at 1 4 6 7 8 10 11 12 13 14: 184 a.u.
2'F-ANA at 3 4 6 7 8 9 11 13: 453 a.u.
2'F-ANA at 1 2 4 6 8 10 12: 59.6 a.u.
2'F-ANA at 1 5 8 13 14: 43.2 a.u.
2'F-ANA at 4 7 9 12 15: 506 a.u.
2'F-ANA at 1 3 4 6 7 8 10 11 12 13 14 15: 56.3 a.u.
2'F-ANA at 6 7 10 11 12 13 14: 100 a.u.
2'F-ANA at 3 9 10 13 15: 489 a.u.

Study 4
Target: RING finger protein unkempt homolog, zinc fingers 1-6, GST-SBP tag (UNK, Homo sapiens, UniProt Q9C0B0, residues 30-357)
UniProt Q9C0B0, sequence (30-357, looked up): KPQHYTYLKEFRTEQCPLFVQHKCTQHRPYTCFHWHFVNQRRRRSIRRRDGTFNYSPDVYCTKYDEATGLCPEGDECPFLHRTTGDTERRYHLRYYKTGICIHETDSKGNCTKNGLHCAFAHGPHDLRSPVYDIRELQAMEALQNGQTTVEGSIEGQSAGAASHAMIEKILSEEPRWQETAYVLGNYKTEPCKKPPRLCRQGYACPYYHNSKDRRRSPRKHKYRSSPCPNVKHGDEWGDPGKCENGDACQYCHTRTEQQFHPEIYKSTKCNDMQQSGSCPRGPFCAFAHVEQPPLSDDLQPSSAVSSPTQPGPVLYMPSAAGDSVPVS
Method: RNA Bind-n-Seq
Form: RNA
Matrix: in vitro
Concentration: not given
Notes: RNA with constant flanks, human and mouse sites, ends assumed
Baseline: input RNA pool
Reading: higher = stronger binding
Quantity: bound/input enrichment
Constant ends, left off below: GGGAGUUCUACAGUCCGACGAUC … CAACAGAGGAUUGAGCAUCA
GGACAUGCCAGCGAGUGUGUAAAGAACGAGUUUGACAAACUCAUGUGCAACUGCAAACAUAACACAUACGGAGUUGACUGUGAAAAGUGCCUGCCUUUCUUCAAUGACCGGCCGUGGAGG: 0.171 ratio
UGUGUAGCCUUUUUUAAUAUCCUUAAUGAGUUAAAUGACUAUGCAGGACAGCGAGAAGUUGUAGCAGAAGAAAUGGCGCACAGAGUGUAUGGUGAAUUAAUGAGAUAUGCUCAUGAUCUG: 1.69 ratio
GGAUAUUUGAUUCCUACUGCUUUGGAAAGCAUUUUGGAGCAAUACCAAAAGGAAACUAACUAACCAAGUGUGAUAUGUUGCUCUGAAAAUCUUUGCGAAAUGAGGGCCUCUUGCUGAAUU: 0.126 ratio
UCCUGGUGCGACAGCGUGGGACAAUGUGAACAUGGACUCGAAGACAUGGCCCUUUCUCUGUAGUUGAUUUUUUAAAUGUGCCAUUAUUGUUUUUAAAAAAAAAGGAAAAAAGAAAAGCAA: 0.432 ratio
GUGACACAGCAGCUUCACCAGAGCAUUUCCAACACCACAGACACACACACGCACGCACACACACAAACACACAUGCACACACACACAUCUCAUUUCUCUAGUGUCUUUUGCCUUUAAAAA: 1.09 ratio
UAGAGCUAGAUUCAAUCAGGUGUCUGAAAUGUGAGUUAAACAUUACUUUAUCCUUUGGUGUAGUUCUUAUUAUUUUCCAUUUAUUGUGCCUCUGGCAGCAGUGUUCCCUUUGAAAGGCCC: 1.3 ratio
CACAGAGGAGAUCUGCUGUUCCUCACGAAUUUCCGGGAGGACCCCAUCAGAGCUGGUGAAAUAGUUGUUUUUAAGGUUGAAGGAAGAGACAUUCCGAUAGUUCACAGAGUAAUCAAGGUU: 2.63 ratio
AACUGCAUCUGUGAUAUCGAUCACUGUUCCAACAUGGCACCCCUCUACAGUGACUCCUACUUAGUCUUCUGGGCCAUUUUCAACCUGGUGACCUUUGUGGUCAUGGUGGUUCUCUACGCU: 0.251 ratio
UUUUGCAUUGUUGGUGUUGACUGUUGACUCUGUAGUGUAGGAGCAAUGAGCAUGUAAUUGUAGCACAAGUAGAGCGGAGGAUAGAGCAAAUUAUGGCUGAUGGAAAAGAUUUAAAUAGUC: 35.8 ratio
AAAAAAGAAAAAUCGAGUUUUCUUUUCAAAGGAGAUGGAUCCAAGCCUUUAGAGCCAGCCAAGCAAGCCAUGUCUCCUUCUGUGGCCGAAUGUGCCAGAGCUGUGUUUGCUUCCUUCCUC: 0.187 ratio
GUGGAUGCUGAUAGGUUUCACCAUCUAUUUCGGUUAUGGGAUCUGGCACAGUGAGGAAGCGUCCCUGGCUGCUGGCCAGGCAAAGACUCCUGACAGCAACUUGGACCAGUGCAAAUGACG: 0.191 ratio
